# Measured values of several laboratories.
# Amino acid sequences for entries named in this document (tags omitted). A change or cut given only in a name is not applied to a line headed by its entry. Residues count along the entry.
# UniProt P41145, whole entry: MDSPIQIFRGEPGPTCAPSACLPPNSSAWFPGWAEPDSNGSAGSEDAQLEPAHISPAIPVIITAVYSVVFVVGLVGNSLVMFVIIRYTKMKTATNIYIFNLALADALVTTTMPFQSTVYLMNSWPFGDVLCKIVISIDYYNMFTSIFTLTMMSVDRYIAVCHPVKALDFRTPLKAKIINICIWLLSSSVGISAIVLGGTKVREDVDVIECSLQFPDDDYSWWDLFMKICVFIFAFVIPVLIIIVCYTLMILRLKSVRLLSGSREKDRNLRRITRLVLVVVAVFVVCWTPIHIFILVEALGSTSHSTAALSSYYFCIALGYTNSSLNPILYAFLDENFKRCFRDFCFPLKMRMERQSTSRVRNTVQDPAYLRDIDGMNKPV
# UniProt P33534, whole entry: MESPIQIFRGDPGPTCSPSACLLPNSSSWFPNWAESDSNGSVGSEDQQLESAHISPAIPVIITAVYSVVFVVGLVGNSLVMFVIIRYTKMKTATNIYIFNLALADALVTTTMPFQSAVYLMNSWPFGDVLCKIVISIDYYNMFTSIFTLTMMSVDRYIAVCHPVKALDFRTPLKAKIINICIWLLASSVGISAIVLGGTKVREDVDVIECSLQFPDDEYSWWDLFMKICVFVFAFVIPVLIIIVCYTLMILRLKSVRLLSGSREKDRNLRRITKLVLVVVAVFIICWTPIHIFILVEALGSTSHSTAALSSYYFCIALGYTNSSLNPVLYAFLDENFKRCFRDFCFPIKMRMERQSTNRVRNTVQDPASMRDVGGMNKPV
# UniProt P9WIQ1, whole entry: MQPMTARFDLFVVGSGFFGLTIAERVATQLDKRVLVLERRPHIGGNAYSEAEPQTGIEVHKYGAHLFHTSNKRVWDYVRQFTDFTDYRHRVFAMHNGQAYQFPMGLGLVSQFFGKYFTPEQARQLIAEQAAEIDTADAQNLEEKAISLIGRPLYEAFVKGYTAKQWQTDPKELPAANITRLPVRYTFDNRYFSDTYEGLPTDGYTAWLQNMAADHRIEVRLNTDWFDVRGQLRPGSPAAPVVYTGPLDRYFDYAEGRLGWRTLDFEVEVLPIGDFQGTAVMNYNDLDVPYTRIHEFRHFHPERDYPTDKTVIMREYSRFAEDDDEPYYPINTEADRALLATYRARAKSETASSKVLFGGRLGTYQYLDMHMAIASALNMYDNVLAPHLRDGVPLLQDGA
# UniProt P47898, whole entry: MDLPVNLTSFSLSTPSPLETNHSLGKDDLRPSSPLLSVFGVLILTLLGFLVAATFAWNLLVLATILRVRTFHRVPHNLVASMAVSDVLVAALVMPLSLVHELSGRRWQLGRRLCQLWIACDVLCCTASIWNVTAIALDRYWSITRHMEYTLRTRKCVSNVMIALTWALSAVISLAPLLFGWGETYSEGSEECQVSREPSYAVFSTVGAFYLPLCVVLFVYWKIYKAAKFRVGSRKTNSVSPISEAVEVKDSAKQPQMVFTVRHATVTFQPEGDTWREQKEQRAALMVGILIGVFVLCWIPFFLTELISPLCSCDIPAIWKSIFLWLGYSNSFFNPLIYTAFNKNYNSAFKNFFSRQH
# UniProt Q8T632, 1-509: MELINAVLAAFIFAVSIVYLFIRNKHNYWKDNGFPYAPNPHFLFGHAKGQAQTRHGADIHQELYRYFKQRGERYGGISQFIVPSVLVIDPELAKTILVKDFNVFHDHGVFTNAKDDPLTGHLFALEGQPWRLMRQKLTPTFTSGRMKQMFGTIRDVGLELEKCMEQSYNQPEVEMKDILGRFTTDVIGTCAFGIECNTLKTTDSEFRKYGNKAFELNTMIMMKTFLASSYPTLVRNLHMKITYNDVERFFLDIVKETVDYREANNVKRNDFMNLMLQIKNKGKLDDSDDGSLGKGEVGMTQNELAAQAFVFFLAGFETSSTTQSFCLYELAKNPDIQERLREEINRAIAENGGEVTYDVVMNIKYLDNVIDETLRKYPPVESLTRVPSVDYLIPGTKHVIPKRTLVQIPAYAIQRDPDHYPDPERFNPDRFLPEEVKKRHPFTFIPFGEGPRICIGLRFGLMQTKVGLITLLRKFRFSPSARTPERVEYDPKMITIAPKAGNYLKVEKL
# UniProt Q9BQI3, whole entry: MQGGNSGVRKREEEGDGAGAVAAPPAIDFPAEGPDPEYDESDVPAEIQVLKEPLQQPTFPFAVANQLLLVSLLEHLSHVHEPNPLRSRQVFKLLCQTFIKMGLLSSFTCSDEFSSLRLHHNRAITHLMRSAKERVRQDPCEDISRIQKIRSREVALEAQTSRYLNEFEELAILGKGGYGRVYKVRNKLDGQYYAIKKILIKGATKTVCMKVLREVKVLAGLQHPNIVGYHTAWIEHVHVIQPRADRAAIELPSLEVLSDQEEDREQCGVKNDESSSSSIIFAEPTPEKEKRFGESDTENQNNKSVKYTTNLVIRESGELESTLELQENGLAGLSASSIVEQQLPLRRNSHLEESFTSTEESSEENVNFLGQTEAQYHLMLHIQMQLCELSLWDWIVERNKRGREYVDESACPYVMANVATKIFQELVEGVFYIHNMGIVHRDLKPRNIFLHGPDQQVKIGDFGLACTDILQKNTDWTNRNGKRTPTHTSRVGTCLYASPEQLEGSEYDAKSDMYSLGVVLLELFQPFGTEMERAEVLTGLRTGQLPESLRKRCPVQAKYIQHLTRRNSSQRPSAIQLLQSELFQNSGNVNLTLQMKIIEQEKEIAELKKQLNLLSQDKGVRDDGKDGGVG
# UniProt P07949, whole entry G810R, looked up: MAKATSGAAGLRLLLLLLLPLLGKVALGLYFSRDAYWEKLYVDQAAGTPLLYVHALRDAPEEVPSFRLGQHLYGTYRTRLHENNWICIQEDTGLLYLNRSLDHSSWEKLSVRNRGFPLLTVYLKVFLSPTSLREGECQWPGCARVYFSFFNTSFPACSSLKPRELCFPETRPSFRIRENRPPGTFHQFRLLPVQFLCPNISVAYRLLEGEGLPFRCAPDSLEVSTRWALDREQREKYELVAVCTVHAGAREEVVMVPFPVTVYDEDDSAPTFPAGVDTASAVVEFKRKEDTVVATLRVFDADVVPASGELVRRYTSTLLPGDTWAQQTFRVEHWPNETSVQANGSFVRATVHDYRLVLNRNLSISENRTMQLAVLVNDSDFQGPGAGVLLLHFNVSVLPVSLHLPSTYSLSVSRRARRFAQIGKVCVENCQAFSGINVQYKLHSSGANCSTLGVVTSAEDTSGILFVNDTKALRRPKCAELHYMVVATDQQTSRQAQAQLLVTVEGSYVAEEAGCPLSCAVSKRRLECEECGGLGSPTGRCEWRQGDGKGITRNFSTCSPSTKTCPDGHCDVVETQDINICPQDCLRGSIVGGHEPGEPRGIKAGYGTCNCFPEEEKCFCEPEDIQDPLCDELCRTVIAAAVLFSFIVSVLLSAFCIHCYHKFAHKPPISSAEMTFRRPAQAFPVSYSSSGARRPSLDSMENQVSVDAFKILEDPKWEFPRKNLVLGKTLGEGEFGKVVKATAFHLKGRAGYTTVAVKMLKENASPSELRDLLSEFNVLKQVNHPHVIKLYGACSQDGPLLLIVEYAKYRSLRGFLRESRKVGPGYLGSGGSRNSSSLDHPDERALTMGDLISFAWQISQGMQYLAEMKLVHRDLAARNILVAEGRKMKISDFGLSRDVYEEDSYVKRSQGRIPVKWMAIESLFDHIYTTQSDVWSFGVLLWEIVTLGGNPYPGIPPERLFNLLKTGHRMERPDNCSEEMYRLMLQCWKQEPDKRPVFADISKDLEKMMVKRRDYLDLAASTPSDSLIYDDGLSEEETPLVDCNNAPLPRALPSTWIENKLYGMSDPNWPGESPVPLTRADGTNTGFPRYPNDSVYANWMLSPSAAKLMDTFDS
# UniProt P46098, 24-478 limits assumed: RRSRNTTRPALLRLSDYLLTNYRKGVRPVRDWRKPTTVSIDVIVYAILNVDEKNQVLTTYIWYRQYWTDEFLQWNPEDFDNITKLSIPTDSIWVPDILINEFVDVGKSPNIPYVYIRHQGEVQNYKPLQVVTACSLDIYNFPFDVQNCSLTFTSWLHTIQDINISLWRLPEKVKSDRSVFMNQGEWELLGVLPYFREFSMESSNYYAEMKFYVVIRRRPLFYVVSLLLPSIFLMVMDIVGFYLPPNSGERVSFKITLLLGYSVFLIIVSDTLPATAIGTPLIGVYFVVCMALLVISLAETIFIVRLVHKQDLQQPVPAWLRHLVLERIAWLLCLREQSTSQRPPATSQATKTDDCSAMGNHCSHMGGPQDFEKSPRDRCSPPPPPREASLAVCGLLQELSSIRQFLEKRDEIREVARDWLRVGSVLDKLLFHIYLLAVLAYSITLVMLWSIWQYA
# UniProt P06276, whole entry, looked up: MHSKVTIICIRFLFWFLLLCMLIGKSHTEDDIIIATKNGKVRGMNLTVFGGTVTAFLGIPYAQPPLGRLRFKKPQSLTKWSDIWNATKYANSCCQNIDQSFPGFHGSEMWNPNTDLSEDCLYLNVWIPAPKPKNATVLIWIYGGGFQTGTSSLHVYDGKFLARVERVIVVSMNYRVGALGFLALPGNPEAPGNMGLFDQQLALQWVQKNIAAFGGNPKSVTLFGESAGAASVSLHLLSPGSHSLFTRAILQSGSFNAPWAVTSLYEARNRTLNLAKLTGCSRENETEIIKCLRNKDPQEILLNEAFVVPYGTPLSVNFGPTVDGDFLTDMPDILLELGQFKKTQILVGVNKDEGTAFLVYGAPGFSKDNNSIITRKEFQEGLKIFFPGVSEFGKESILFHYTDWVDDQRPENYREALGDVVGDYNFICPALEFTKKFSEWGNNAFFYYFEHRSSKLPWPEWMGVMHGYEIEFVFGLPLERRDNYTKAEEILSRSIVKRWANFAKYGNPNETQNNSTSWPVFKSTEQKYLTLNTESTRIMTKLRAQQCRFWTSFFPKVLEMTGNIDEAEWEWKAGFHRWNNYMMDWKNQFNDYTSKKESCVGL
# UniProt P16591, whole entry: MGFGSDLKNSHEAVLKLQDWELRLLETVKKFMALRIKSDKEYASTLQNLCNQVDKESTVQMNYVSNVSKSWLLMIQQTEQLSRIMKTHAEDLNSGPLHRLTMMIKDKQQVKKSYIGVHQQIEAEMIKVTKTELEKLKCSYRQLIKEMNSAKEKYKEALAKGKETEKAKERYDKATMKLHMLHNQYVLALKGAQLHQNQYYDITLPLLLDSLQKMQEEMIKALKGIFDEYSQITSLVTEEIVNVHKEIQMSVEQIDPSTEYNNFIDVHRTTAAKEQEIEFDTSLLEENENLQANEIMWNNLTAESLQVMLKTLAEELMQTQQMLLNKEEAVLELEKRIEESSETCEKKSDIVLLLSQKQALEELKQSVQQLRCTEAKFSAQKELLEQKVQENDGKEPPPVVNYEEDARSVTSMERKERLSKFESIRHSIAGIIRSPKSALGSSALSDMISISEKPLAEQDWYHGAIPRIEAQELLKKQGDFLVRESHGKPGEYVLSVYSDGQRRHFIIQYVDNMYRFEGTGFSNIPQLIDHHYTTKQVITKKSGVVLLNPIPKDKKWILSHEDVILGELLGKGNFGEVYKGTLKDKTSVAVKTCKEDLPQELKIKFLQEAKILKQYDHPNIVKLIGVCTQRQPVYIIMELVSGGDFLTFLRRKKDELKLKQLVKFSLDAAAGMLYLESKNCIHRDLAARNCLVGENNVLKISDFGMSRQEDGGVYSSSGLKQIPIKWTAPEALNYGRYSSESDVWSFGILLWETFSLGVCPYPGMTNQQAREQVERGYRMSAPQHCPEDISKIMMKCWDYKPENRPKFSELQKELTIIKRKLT
# UniProt Q08J23, whole entry: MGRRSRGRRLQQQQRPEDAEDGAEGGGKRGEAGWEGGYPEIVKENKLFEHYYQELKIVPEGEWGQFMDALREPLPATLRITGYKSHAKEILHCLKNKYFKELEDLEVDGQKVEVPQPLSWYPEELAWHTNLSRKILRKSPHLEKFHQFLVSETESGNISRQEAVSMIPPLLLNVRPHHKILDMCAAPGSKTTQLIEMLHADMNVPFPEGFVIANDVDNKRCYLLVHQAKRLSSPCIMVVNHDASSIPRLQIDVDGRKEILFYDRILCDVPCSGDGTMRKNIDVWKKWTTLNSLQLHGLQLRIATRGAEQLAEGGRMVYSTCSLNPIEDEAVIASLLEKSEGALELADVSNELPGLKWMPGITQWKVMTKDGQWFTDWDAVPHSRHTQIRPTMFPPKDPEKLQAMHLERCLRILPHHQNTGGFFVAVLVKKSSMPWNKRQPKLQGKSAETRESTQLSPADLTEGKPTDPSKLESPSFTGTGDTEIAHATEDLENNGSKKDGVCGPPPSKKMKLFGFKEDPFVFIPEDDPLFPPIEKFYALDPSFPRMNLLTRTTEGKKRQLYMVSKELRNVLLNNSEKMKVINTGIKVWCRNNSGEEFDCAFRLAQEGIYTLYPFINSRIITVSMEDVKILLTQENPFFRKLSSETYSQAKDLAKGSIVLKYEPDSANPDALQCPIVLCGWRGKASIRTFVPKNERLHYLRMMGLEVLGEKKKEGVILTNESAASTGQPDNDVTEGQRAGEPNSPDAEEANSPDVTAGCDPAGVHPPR
# UniProt Q86QH4, 1-128 partner: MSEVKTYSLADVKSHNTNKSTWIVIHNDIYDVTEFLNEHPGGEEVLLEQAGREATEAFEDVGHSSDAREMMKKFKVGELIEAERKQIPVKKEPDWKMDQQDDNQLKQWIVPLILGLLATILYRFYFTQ
# Compare with care: the assays were run in different laboratories. Numbers after ± are the reported error.
# OPRK1: Kappa-type opioid receptor (OPRK1, Homo sapiens, UniProt P41145)
# Oprk1: Kappa-type opioid receptor (Oprk1, Mus musculus, UniProt P33534)
# glf: UDP-galactopyranose mutase (glf, Mycobacterium tuberculosis, UniProt P9WIQ1)
Substance,tested on,assay,test system,setting,scale,measurement,value
CCCCCCC1c2ccc(O)cc2Oc2cc(O)ccc21,Shigella flexneri,,ATCC 12022,no additive,,MIC,> 373 mg/L
Cc1cc(=O)oc2cc(NC(=O)[C@H](CCCNC(=N)N)NC(=O)[C@H](CCCNC(=N)N)NC(=O)CNC(=O)OC(C)(C)C)ccc12,"Genome polyprotein, NS2B-NS3 protease (Zika virus, UniProt Q32ZE1)",substrate,,,,Km,312 ± 30 µM
ethoxymethyl salvinorin B,OPRK1,agonist,,,baseline: U-50488 10 µM,Emax,108 ± 3.4%
CCCN1CCN(c2ccc3c(c2)C2CC3CCN2C(=O)OCc2ccccc2)CC1 (stereo not drawn),"HTR5A (Homo sapiens, UniProt P47898)","binding, radioligand binding",,,,Ki,3240 nM
O=C(Cn1c(-c2ccccn2)nc2ccccc21)Nc1ccc2ccccc2c1,"Inosine-5'-monophosphate dehydrogenase (guaB, Helicobacter pylori, UniProt P56088)","enzyme activity, inhibitor",,corrected for open enzyme conformation,,IC50,0.5 nM
CN(C(=O)Cc1cccc2occc12)[C@H]1CC[C@@]2(CCCO2)C[C@@H]1N1CCCC1,Oprk1,"receptor internalization, agonist",,concentration not given,baseline: dynorphin A,log intrinsic relative activity,0.37 ± 0.26
COc1ccc(OC[C@H]2c3cccn3CC(=O)N2Cc2cccc(F)c2)cc1,"Glutamate receptor ionotropic, NMDA 2C, with GluN1 (Rattus norvegicus, UniProt Q00961)","ion current, whole-cell patch clamp","HEK293T cells, transfected","10 µM, with: 1 mM glutamate for 10 ms plus 100 µM glycine",,charge transfer,-9.9 ± 10 nA·ms
C[C@H](Cc1ccc(O)c(O)c1)[C@@H](C)Cc1ccc(O)c(O)c1,,,human skin,"3% w/v solution, 8 h, no UV exposure",,total amount delivered,14.8 ± 2.36 µg
CN(C(=O)Cc1ccc(Cl)c(Cl)c1)[C@H](CN1CCCC1)c1ccccc1,Oprk1,"receptor internalization, agonist, on-cell western",,mouse receptor,baseline: control,Emax,47.2 ± 1.5%
O=C(NS(=O)(=O)C(F)(F)F)C(Cc1ccc(I)cc1)Nc1nc(-c2ccc(Cl)c(Cl)c2)cs1 (stereo not drawn),glf,"enzyme activity, inhibitor",,,baseline: compound over reference carboxylate,IC50 ratio,2 to 3 fold
CCOc1ccc2c(c1)Oc1cc(OCC)ccc1C21OC(=O)c2ccccc21,"cyp6p3 (Anopheles gambiae, UniProt Q8T632)",substrate,,single plasmid expression,,Vmax,54.4 ± 6.52 RFU/s
CO[C@]12CC[C@@]3(C[C@@H]1[C@@H](O)c1ccccc1)[C@H]1Cc4ccc(O)c5c4[C@@]3(CCN1CC1CC1)[C@H]2O5,OPRK1,"binding, radioligand displacement",CHO,with: [3H]U-69593,,Ki,0.88 ± 0.03 nM
COc1ccc(S(=O)(=O)NC(=O)C(Cc2ccc(I)cc2)Nc2nc(-c3ccc(Cl)c(Cl)c3)cs2)cc1 (stereo not drawn),glf,"enzyme activity, inhibitor",,,baseline: compound over reference carboxylate,IC50 ratio,2 to 3 fold
CSc1nc(Cl)cc(Sc2nnc(-c3cc(C(F)(F)F)cc(C(F)(F)F)c3)[nH]2)n1,Salmonella Typhimurium,,SL1344,,,MIC,> 590 mg/L
CCN1CCN(Cc2ccc(NC(=O)c3ccc(C)c(/C=C/c4cnc5[nH]ccc5c4OC)c3)cc2C(F)(F)F)CC1,"Eukaryotic translation initiation factor 2-alpha kinase 1, with CDC37 (EIF2AK1, Homo sapiens, UniProt Q9BQI3)","inhibitor, cell-based kinome screen",human cells,5 µM,baseline: vehicle,log2 fold change,0.195
Cc1ccc(C(=O)Nc2ccc(CN3CCN(C)CC3)c(C(F)(F)F)c2)cc1C#Cc1cnc2cccnn12,"Proto-oncogene tyrosine-protein kinase receptor Ret, KIF5B-RET fusion (RET, Homo sapiens, UniProt P07949, G810R)",inhibitor,,"0.02 µM, cell-based",,inhibition,< 25%
O=C(Nc1ccccc1)c1cc([N+](=O)[O-])ccc1Cl,Salmonella typhimurium,Ames plate incorporation,TA100,"150 µg/plate, without metabolic activation",,revertants,1560 ± 50 revertants/plate
CCN(CC)C(=O)Oc1ccc(C(=O)Nc2cccc3cc[nH]c23)cc1,"HTR3A (Homo sapiens, UniProt P46098)","modulator, two-electrode voltage clamp",Xenopus oocytes,"20 µM, with: 1 µM serotonin",baseline: agonist alone,current response,94.5 ± 4.5%
CCN(CC)c1ccc2c(O)c(C=Nc3ccc(CC(=O)NNc4c5c(nc6ccccc46)CCCC5)cc3)c(=O)oc2c1,"Cholinesterase (BCHE, Homo sapiens, UniProt P06276)","enzyme activity, fluorescence",,,,efficacy,-100 ± 18.3%
O=c1ccc2[n+]([O-])c3ccc(O)cc3oc-2c1,Mycobacterium tuberculosis,,mc2 6206 PA-824-resistant ddn mutant,7 days,,MIC90,46 µM
methoxymethyl salvinorin B,OPRK1,"receptor internalization, agonist, on-cell western",,human receptor,baseline: control,Emax,52.2 ± 1.7%
CC#C/C(=N\OC[C@H]1COCCN1)c1ccc2ncnc(Nc3ccc(OCc4cccc(F)c4)c(Cl)c3)c2c1,"FER (Homo sapiens, UniProt P16591)",kinase activity,,10 µM,,inhibition,17.5%
Cc1ccc2nc(-c3ccc4nc(-c5ccc(NC(=O)c6ccncc6)cc5)sc4c3)sc2c1S(=O)(=O)O,MBHA DNA substrate,SYBR Green I displacement,,100 µM,,DNA bound,19 ± 7%
C=CC(=O)N1C[C@H](c2ccc(Br)cc2)[C@@H]1C(=O)Nc1cccc2cccnc12,"NSUN2 (Homo sapiens, UniProt Q08J23)","methyltransferase activity, covalent inhibitor",,,,kinact/KI,67 ± 15 M⁻¹ s⁻¹

# Repeated from above:
Substance,tested on,assay,test system,setting,scale,measurement,value
O=C(Nc1ccccc1)c1cc([N+](=O)[O-])ccc1Cl,Salmonella typhimurium,Ames plate incorporation,TA100,"150 µg/plate, without metabolic activation",,revertants,1560 ± 50 revertants/plate
Cc1ccc(C(=O)Nc2ccc(CN3CCN(C)CC3)c(C(F)(F)F)c2)cc1C#Cc1cnc2cccnn12,"Proto-oncogene tyrosine-protein kinase receptor Ret, KIF5B-RET fusion (RET, Homo sapiens, UniProt P07949, G810R)",inhibitor,,"0.02 µM, cell-based",,inhibition,< 25%
CCCN1CCN(c2ccc3c(c2)C2CC3CCN2C(=O)OCc2ccccc2)CC1 (stereo not drawn),"HTR5A (Homo sapiens, UniProt P47898)","binding, radioligand binding",,,,Ki,3240 nM
CCN1CCN(Cc2ccc(NC(=O)c3ccc(C)c(/C=C/c4cnc5[nH]ccc5c4OC)c3)cc2C(F)(F)F)CC1,"Eukaryotic translation initiation factor 2-alpha kinase 1, with CDC37 (EIF2AK1, Homo sapiens, UniProt Q9BQI3)","inhibitor, cell-based kinome screen",human cells,5 µM,baseline: vehicle,log2 fold change,0.195
